Experimental data collected from several papers.
Every numbered part comes from another study and shows a few of its results, in no order.

Series 1 — effect on: enzyme activity; mode: inhibitor; organism: MERS-CoV; tested at: 10 µM
Target: Replicase polyprotein 1ab, 3C-like proteinase (rep, Middle East respiratory syndrome-related coronavirus, UniProt K9N7C7)
The inhibition of `CC[C@H](CO)Nc1nc(NCc2ccc(-c3ccccn3)cc2)c2ncn(C(C)C)c2n1` is reported as 4%.
With `CC(=O)[O][Hg][c]1ccccc1` the inhibition was 4%.
`C=CC1=C(C)c2cc3[nH]c(cc4nc(cc5[nH]c(cc1n2)c(C)c5C=C)C(C)=C4CCC(=O)O)c(CCC(=O)O)c3C.[Fe+3]` has an inhibition of 7%.
The inhibition of `Oc1ccc2ccccc2c1SSc1c(O)ccc2ccccc12` is reported as 6%.

Series 2 — technique: RNA Bind-n-Seq; form: RNA; medium: in vitro; tested at: 200 nM; notes: whole 134-nt RNA, ends assumed; together with: 150 mM LiCl; relative to: input library; direction: higher = stronger binding; all molecules: 7-deaza-guanosine replaces G
Target: Fragile X messenger ribonucleoprotein 1, C-terminal low-complexity region (Fmr1, Mus musculus, UniProt P35922)
All sequences stand within: GGGAGUUCUACAGUCCGACGAUC … UGGAAUUCUCGGGUGUCAAGG
`CACAGACAACACGCACCCACACAGACACAGAGGGAAGGGGUUAAAAUGGGGACAGGGUGCACAGCAGGGCGGGGUAGGACCCCAGCCCCU` gave a log2 enrichment of -0.566.
For `CAAGUCCUGUGCUACACAUCGUAUGUACCGAAUCGGGAAAGGGAAAGGGAAAGGGAAAGUAUUAUGUUACGCCGUUCGGAUCUGCACUUC`, the log2 enrichment was -0.79.
For `UGUCCCUGGUGGCAUGCGGGGAGGAAGAGGUGGCCUCAUGGAUCGUGGUGGUCCCGGUGGAAUGUUCAGAGGUGGCCGUGGUGGAGACAG`, the log2 enrichment was -0.142.
For `CUCAAGUCCUGUGCUACACAUCGUAUGUACCGAAUCGGUGGAGGAAAAAAAGGAAAGUAUUAUGUUACGCCGUUCGGAUCUGCACUUCCA`, the log2 enrichment was -0.0986.
`GUCCUGUGCUACACAUCGUAUGUACCGAAUCGGGGAGGGGUUUGGGGUUUUUUUGGGGAAAGUAUUAUGUUACGCCGUUCGGAUCUGCAC` gave a log2 enrichment of -0.739.
With `UCAAGUCCUGUGCUACACAUCGUAUGUACCGAAUCGGGGCCGGGCCGGGGCCGGGAAAGUAUUAUGUUACGCCGUUCGGAUCUGCACUUC` the log2 enrichment was 0.0318.
The log2 enrichment of `UCCUGUGCUACACAUCGUAUGUACCGAAUCGGGAAAAAAAGGGUUUUUGGGAAAAAGGGAAAGUAUUAUGUUACGCCGUUCGGAUCUGCA` is reported as -1.28.
The log2 enrichment of `GUCCUGUGCUACACAUCGUAUGUACCGAAUCAAACCCAAAUUUUUUUAAACCCCCAAAAAAGUAUUAUGUUACGCCGUUCGGAUCUGCAC` is reported as 1.06.

Series 3 — technique: RNAcompete; form: RNA; medium: in vitro; tested at: 20 nM; notes: 7-mer, probes averaged, single round; relative to: mean of 7-mers; direction: higher = stronger binding
Target: PABPC1L2, full length, GST fusion (mouse, UniProt A0ABA7IW68)
Residues (chain): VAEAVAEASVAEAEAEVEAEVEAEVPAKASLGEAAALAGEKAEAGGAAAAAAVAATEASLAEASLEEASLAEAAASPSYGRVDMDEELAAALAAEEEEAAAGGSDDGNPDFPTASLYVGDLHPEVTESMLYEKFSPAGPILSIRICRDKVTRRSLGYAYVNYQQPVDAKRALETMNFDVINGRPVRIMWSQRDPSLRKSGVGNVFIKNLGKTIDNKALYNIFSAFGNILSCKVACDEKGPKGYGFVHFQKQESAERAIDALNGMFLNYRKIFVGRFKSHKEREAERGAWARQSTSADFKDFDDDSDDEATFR
The 7-mer Z-score of `AUAGAGA` is reported as -0.0428.
With `UCUAGUC` the 7-mer Z-score was -0.358.
The 7-mer Z-score of `GCUUGCU` is reported as -0.427.
The 7-mer Z-score of `AGGGACG` is reported as 0.273.
The 7-mer Z-score of `GCCAGAA` is reported as 0.198.
`AUGAAAG` has a 7-mer Z-score of 0.249.
`UGUUAGG` has a 7-mer Z-score of -0.211.
`CUUGCUU` has a 7-mer Z-score of -0.44.

Series 4 — technique: RNA Bind-n-Seq; form: RNA; medium: in vitro; tested at: 365 nM; relative to: no-protein control; direction: higher = stronger binding
Target: RNA binding protein fox-1 homolog 2, RRM domain, GST-SBP tag (RBFOX2, Homo sapiens, UniProt O43251-10, residues 100-194)
Notes: natural RNA segment, single round, ends assumed
All sequences stand within: GGGAGUUCUACAGUCCGACGAUC … UGGAAUUCUCGGGUGCCAA
Construct (chain): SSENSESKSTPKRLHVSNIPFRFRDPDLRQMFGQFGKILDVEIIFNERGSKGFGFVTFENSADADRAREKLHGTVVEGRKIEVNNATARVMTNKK
Under “RBNS enrichment (R)”, `CAGAAGAUCUUAUCUUGCCAGGCCGUGGAGAGCUACAAGAAAGAUUCCUGAGAAAUGUCCAACUGCUAGGAGUCUGACCAAAUUACAGAUGUGUGCCAUACUCUGGUUCU` is recorded as 0.508.
`AGGUAGCUCAGGGACCUCCACUGUGGGACCCUUGAGACGCUUCCACUCUGAUUCAGAAACACACUUCUACCUCUUUACUGUUAACUCUUAACAGAUGCAGUCAGCAGUUU`: “RBNS enrichment (R)” 0.273.
Under “RBNS enrichment (R)”, `GCCCCUAGGUGGGCAGAGGCAGACCCUCCCCAGAGCUCCUUAGGAAGAAGACAGACUGGUUCAUUGAAUGCCGCCUUAUUUAUUUCUGGUGAGGAUGCAUGCGUGGGGCU` is recorded as 5.45.
Under “RBNS enrichment (R)”, `UGCACUCCCAAACCCCAGCGCAGUGUCCUUUCCCUGCUGCCGACAGGAACCUGGGGCUGAACAGGUUAUCCCUGUCAGGAGCCCUGGACUGGGCUGCAUCUCAGCCCCAC` is recorded as 0.234.
For `UAUCUCUUGGGACAACUUUUAAAAGCUAUUUUUACCAAGUAUUUUGUAAAUGCUAAUUUUUUAGGACUCUACUAGUUGGCAUACGAAAAUAUAUAAGGAUGGACAUUUUA`, “RBNS enrichment (R)” read 0.418.
For `UAGAUUUCAGAUGACUAUGCAGAGGCCUUGGGGACCCCUCCCCAGCUCUGGGCAGGGCCUGGGGAUCCCACAUUCCAUGCCCAGGCUUGGGGGAGGGGGACCCAGACUUG`, “RBNS enrichment (R)” read 0.279.
`CCUUUUCCACUUGACAUGCUAGAAUUUUGGUGUGUGUGUGUGUGUGUGUGUAUUUGUUCACGAGCACAAUAGCUCCCAUGGGGGUCUGCACAUGCAGGUGUCCACCAGCA`: “RBNS enrichment (R)” 5.22.
`GACUAGGCUGAGGCUAGUGCUGGUGUGGACUCGUUGCCCACUGUCUUCCUGUUUAUGAUUAACUCUGGAUACCUGGGCAGGUGGGGCAGAGUGGGCAGGGAAGUGGCUUC` — result for “RBNS enrichment (R)”: 5.37.

Series 5 — effect on: enzyme activity; mode: inhibitor; tested at: 20 µM
Target: Replicase polyprotein 1ab, polymerase (rep, Severe acute respiratory syndrome coronavirus 2, UniProt P0DTD1)
`FC(F)(F)c1cc(NC(=S)Nc2ccc(Br)cc2-c2nn[nH]n2)cc(C(F)(F)F)c1` gave an inhibition of 11.6%.
With `C#C[C@]1(O)CC[C@H]2[C@@H]3CCC4=CC(=O)CCC4=C3C=C[C@@]21CC` the inhibition was 4.62%.
For `CC(=O)C(=Cc1cc(O)c(O)c([N+](=O)[O-])c1)C(C)=O`, the inhibition was 0.76%.
`Oc1ccc(Cl)c2cccnc12` gave an inhibition of -12.7%.
For `CC(=O)[C@]1(O)Cc2c(O)c3c(c(O)c2[C@@H](O[C@H]2C[C@H](N)[C@H](O)[C@H](C)O2)C1)C(=O)c1ccccc1C3=O`, the inhibition was 62.7%.
The inhibition of `NCCCS(=O)(=O)O` is reported as 45.6%.
For `C[C@@H](N)c1ccc(C(=O)Nc2ccnc3[nH]ccc23)cc1`, the inhibition was 0.01%.
`COc1ccc([C@]2(O)CC[C@@H](N3CC[C@@H](NC(=O)CNC(=O)c4cccc(C(F)(F)F)c4)C3)CC2)cn1` has an inhibition of 3.64%.
The inhibition of `CC(CCc1ccccc1)NCC(O)c1ccc(O)c(C(N)=O)c1` (stereo not drawn) is reported as -1.32%.
`CCOc1cc(C(=O)N2CCC(N3CCN(C)CC3)CC2)ccc1Nc1ncc2c(n1)N(C1CCCC1)c1ccccc1C(=O)N2C` gave an inhibition of -1.85%.
`O=C(Cc1ccc(-c2ccccc2)cc1)Nc1ccccn1` gave an inhibition of 2.63%.
With `O=C(Oc1ccccc1)c1ccccc1O` the inhibition was 0.03%.
`CCN(CC)CCn1c(=O)c(Cc2ccc(OC)cc2)nc2ccccc21` gave an inhibition of -2.69%.
The inhibition of `Cc1cc(-c2nc(-c3ccc(OC(F)(F)F)cc3)no2)nn1Cc1ccnc(N2CCN(C3CC3)CC2)c1` is reported as 0.46%.
`O=C(Nc1cccnn1)N1CCC(=Cc2cccc(Oc3ccc(C(F)(F)F)cn3)c2)CC1` has an inhibition of -2.77%.
For `NC(=O)c1cn(Cc2c(F)cccc2F)nn1`, the inhibition was 1.33%.
For `CCO[C@@H](Cc1ccc(OCCn2c(C)ccc2-c2ccc(SC)cc2)cc1)C(=O)O`, the inhibition was 0.42%.
`O=C(O)c1cc(O)c2c3nc4ccccc4oc-3cc(=O)c2n1` has an inhibition of 5.96%.
`NCCC[C@H](N)C(=O)O` gave an inhibition of -19.1%.
With `CC1(C)S[C@@H]2[C@H](NC(=O)[C@H](C(=O)O)c3ccsc3)C(=O)N2[C@H]1C(=O)O` the inhibition was -0.41%.
The inhibition of `COc1cc(C[C@H]2c3cc(OC)c(OC)cc3CCN2C)c(Oc2cc3c(cc2OC)-c2c(OC)c(OC)cc4c2[C@H](C3)N(C)CC4)cc1OC` is reported as 1.76%.
The inhibition of `CCC(=O)O[C@]1(C(=O)CCl)[C@@H](C)C[C@H]2[C@@H]3CCC4=CC(=O)C=C[C@]4(C)[C@@]3(F)[C@@H](O)C[C@@]21C` is reported as 2.65%.
For `CC1=CC[C@@H](C(C)(C)O)C[C@@H]1O`, the inhibition was -5.97%.
For `N=C(N)c1ccc(N=NNc2ccc(C(=N)N)cc2)cc1`, the inhibition was -1.26%.
With `C[C@@H](O)[C@H]1C(=O)N2C(C(=O)O)=C(S[C@@H]3CN[C@H](C(=O)N(C)C)C3)[C@H](C)[C@H]12` the inhibition was 12.5%.

Series 6 — cell line: HEK-293T; effect on: pseudovirus infection; technique: FDA-approved drug library screen; organism: VSV pseudotyped with SARS-CoV-2 spike; tested at: 10 µM; time: 16 h; relative to: vehicle-treated
For `Cc1noc(NS(=O)(=O)c2ccc(N)cc2)c1C`, the GFP-positive cells was 118%.
`O=C1CCC(N2C(=O)c3ccccc3C2=O)C(=O)N1` (stereo not drawn) has a GFP-positive cells of 116%.
With `CCOC(=O)c1cncn1[C@H](C)c1ccccc1` the GFP-positive cells was 79.3%.
`CCCN(CCC)S(=O)(=O)c1ccc(C(=O)O)cc1` gave a GFP-positive cells of 93.2%.

For quick reference, copied from above (series 5):
For `C[C@@H](N)c1ccc(C(=O)Nc2ccnc3[nH]ccc23)cc1`, the inhibition was 0.01%.
For `NC(=O)c1cn(Cc2c(F)cccc2F)nn1`, the inhibition was 1.33%.
With `C[C@@H](O)[C@H]1C(=O)N2C(C(=O)O)=C(S[C@@H]3CN[C@H](C(=O)N(C)C)C3)[C@H](C)[C@H]12` the inhibition was 12.5%.
The inhibition of `Cc1cc(-c2nc(-c3ccc(OC(F)(F)F)cc3)no2)nn1Cc1ccnc(N2CCN(C3CC3)CC2)c1` is reported as 0.46%.
`O=C(Cc1ccc(-c2ccccc2)cc1)Nc1ccccn1` gave an inhibition of 2.63%.
